Measured values gathered from unrelated publications.
Lines come from different studies, so protocols differ. Several values in a cell are separate wells, animals, samples, runs or records. ± marks the error that the study gave.

Structure (SMILES) = O=C(CN1C(=O)C2(CCN(C(=O)c3ccc4[nH]ncc4n3)CC2)c2c(Br)cccc21)NCC(F)(F)F; system = PAMPA; measurement = Papp; result = 1.94 ×10⁻⁶ cm/s
Structure (SMILES) = NC1CCN(C(=O)Oc2ccc(C3CCCC4(C3)OOC3(O4)C4CC5CC(C4)CC3C5)cc2)CC1 (racemic); system = male Sprague-Dawley rat, plasma; setting = intravenous, 10 mg/kg; measurement = Cmax; result = 1660 ng/mL
Structure (SMILES) = CN1Cc2cc(Cl)ccc2-n2c(nnc2C2CCN(c3cccc([18F])n3)CC2)C1; system = C57BL/6 mouse male, heart; setting = intravenous, 3.7 MBq, 30 min; measurement = tissue uptake; result = 6.54 ± 2 %ID/g
Structure (SMILES) = CC[C@H](C)[C@H](NC(=O)[C@H](CCCCN)NC(=O)CNC(=O)[C@H](CC(C)C)NC(=O)[C@H](Cc1ccccc1)NC(=O)[C@H](CCCCN)NC(=O)[C@H](CO)NC(=O)[C@H](Cc1ccccc1)NC(=O)[C@H](Cc1c[nH]c2ccccc12)NC(=O)[C@H](CCC(N)=O)NC(=O)[C@@H](NC(=O)[C@H](Cc1ccccc1)NC(=O)CCCCCNC(=O)CN1CCN(CC(=O)O)CCN(CC(=O)O)CCN(CC(=O)O)CC1)C(C)C)C(=O)N[C@@H](CCC(=O)O)C(=O)N1CCC[C@H]1C(=O)N[C@@H](CC(=O)O)C(=O)N[C@H](C(=O)N[C@@H](CO)C(=O)N[C@@H](CCC(N)=O)C(=O)N[C@H](C(=O)N[C@@H](CCC(N)=O)C(=O)N[C@@H](CC(=O)O)C(=O)N1CCC[C@H]1C(=O)N[C@@H](CC(N)=O)C(=O)N[C@@H](CC(=O)O)C(=O)N[C@@H](CCC(N)=O)C(=O)N[C@@H](Cc1ccc(O)cc1)C(=O)N[C@@H](CCC(=O)O)C(=O)N1CCC[C@H]1C(=O)N[C@@H](Cc1ccccc1)C(=O)O)C(C)C)C(C)C [copper-64 labelled]; system = C57BL/6 mice, spleen; setting = together with: LPS 3 mg/kg intratracheal; measurement = tissue uptake; result = 1.38 ± 0.2 %ID/g
Structure (SMILES) = N#[11C]c1ccc(-c2csc(NN=C3CCCC3)n2)cc1; system = C57BL/6 mice, male, bone; setting = intravenous, 3 MBq, 60 min; measurement = radioactivity uptake; result = 0.84 ± 0.4 %ID/g
Structure (SMILES) = N=C(N)NCCC[C@@H](NC(=O)[C@H](N)Cc1c[nH]c2ccccc12)C(=O)N[C@H](CCCCN)C(=O)N[C@H](Cc1c[nH]c2ccccc12)C(=O)N[C@H](CCCNC(=N)N)C(=O)N[C@H](CCCCN)C(=O)N[C@H](Cc1c[nH]c2ccccc12)C(=O)N[C@H](CCCNC(=N)N)C(=O)N[C@H](CCCCN)C(=O)N[C@H](Cc1c[nH]c2ccccc12)C(=O)N[C@H](CCCNC(=N)N)C(=O)N[C@H](CCCCN)C(N)=O; system = mouse; setting = intraperitoneal, 30 mg/kg single dose, day 6; measurement = survival; result = 100%
Structure (SMILES) = C#Cc1c(F)ccc2cc(O)cc(-c3ncc4c(N5CC6CCC(C5)N6C(=O)OC(C)OC(=O)c5ccccc5)nc(OC[C@@]56CCCN5C[C@H](F)C6)nc4c3F)c12 (some centres unmarked); assay = measured: prodrug; system = mouse whole blood; setting = 1 µM; measurement = t1/2; result = 10.8 min
Structure (SMILES) = CC[C@H](C)[C@H](NC(=O)[C@H](C)NC(=O)[C@H](CCCCN)NC(=O)[C@H](CC(C)C)NC(=O)[C@@H](N)Cc1ccccc1)C(=O)N[C@@H](CCCCN)C(=O)N[C@@H](CCCCN)C(=O)N[C@@H](Cc1ccccc1)C(=O)NCC(=O)N[C@@H](CCCCN)C(=O)N[C@@H](CCC(=O)O)C(=O)N[C@@H](Cc1ccccc1)C(=O)N[C@@H](CCCCN)C(=O)N[C@@H](CCCCN)C(=O)N[C@H](C(=O)NCC(=O)N[C@@H](C)C(=O)N[C@@H](CCCCN)C(=O)N[C@@H](CC(C)C)C(=O)N[C@@H](CCCCN)C(=O)O)[C@@H](C)CC; system = human red blood cells; setting = 4 mg/L, 1 h; measurement = hemolysis; result = 0.633%
Structure (SMILES) = CC(C)[C@@H]1NC(=O)CNC(=O)[C@H](CC(N)=O)NC(=O)[C@H](CCCNC(=N)N)NC(=O)[C@H](Cc2ccc(O)cc2)NC(=O)[C@H](C(C)C)NC(=O)[C@@H](NC(=O)[C@@H](NC(=O)[C@H](CC(N)=O)NC(=O)[C@H](Cc2c[nH]c3ccccc23)NC(=O)[C@H](C)NC(=O)[C@H](Cc2ccccc2)NC(=O)CNC(=O)[C@H](CCCCN)NC(=O)[C@H](Cc2ccccc2)NC(=O)[C@H](Cc2ccccc2)NC(=O)[C@H](CCCCN)NC(=O)OCC2c3ccccc3-c3ccccc32)C(C)C)CSSC[C@@H](C(=O)N[C@@H](Cc2c[nH]cn2)C(=O)N[C@@H](CCCNC(=N)N)C(=O)N[C@@H](CCCNC(=N)N)C(=O)N[C@@H](C)C(=O)N[C@@H](CC(N)=O)C(N)=O)NC(=O)[C@H](C(C)C)NC(=O)[C@H](CCCNC(=N)N)NC1=O; system = ICR mouse, blood; setting = intramammary, 10 mg/kg, day 5, 3 d dosing; measurement = AST; result = 26.4 ± 0.68 IU/L
Structure (SMILES) = CC[C@H](C)[C@H](NC(=O)CNC(=O)[C@H](CCSC)NC(=O)[C@H](CCC(N)=O)NC(=O)[C@H](C)NC(=O)[C@H](CCC(N)=O)NC(=O)[C@@H](NC(=O)[C@H](CC(C)C)NC(=O)[C@H](C)NC(=O)[C@H](CO)NC(=O)[C@H](CCSC)NC(=O)[C@H](CCC(=O)O)NC(=O)[C@H](CC(C)C)NC(=O)[C@H](Cc1ccc(O)cc1)NC(=O)[C@H](CO)NC(=O)[C@H](CCC(=O)O)NC(=O)[C@H](CCC(N)=O)NC(=O)[C@H](CCCNC(=N)N)NC(=O)[C@H](CCCCN)NC(=O)[C@H](CC(=O)O)NC(=O)[C@H](CC(C)C)NC(=O)[C@H](CC(N)=O)NC(=O)[C@H](Cc1ccccc1)NC(=O)[C@H](CCC(=O)O)NC(=O)[C@H](CCCCN)NC(=O)[C@@H](NC(=O)[C@H](CC(C)C)NC(=O)[C@H](CCC(=O)O)NC(=O)[C@H](CCC(=O)O)NC(=O)[C@@H](NC(=O)[C@@H](NC(=O)[C@H](CCCNC(=N)N)NC(=O)[C@H](CCCCN)NC(=O)[C@H](C)NC(=O)[C@H](Cc1ccccc1)NC(=O)[C@H](CCC(=O)O)NC(=O)[C@H](CCC(=O)O)NC(=O)[C@H](CC(C)C)NC(=O)[C@@H](N)CO)C(C)C)C(C)C)C(C)C)[C@@H](C)CC)C(=O)N[C@@H](CO)C(=O)N[C@@H](CCC(=O)O)C(=O)N[C@@H](CCCNC(=N)N)C(=O)N[C@H](C(=O)N[C@H](C(=O)N[C@@H](CCC(=O)O)C(=O)N[C@H](C(=O)N[C@H](C(=O)N[C@@H](CC(C)C)C(=O)N[C@@H](CCCNC(=N)N)C(=O)N[C@@H](Cc1c[nH]cn1)C(=O)N[C@@H](C)C(=O)N[C@@H](C)C(=O)N[C@@H](CCC(N)=O)C(=O)N[C@H](C(=O)N[C@@H](CC(C)C)C(=O)N[C@@H](CCCCN)C(=O)O)[C@@H](C)O)C(C)C)[C@@H](C)CC)[C@@H](C)CC)[C@@H](C)CC; assay = LC-MS/MS, noncompartmental; system = ICR CD-1 mouse, male, plasma; setting = iv, 1 mg/kg; measurement = AUC(0-last)/AUC(0-inf) ratio; result = 0.89
Structure (SMILES) = C/C(=N\OCCCN1CCCCC1)c1ccc(C(F)(F)F)cc1; system = mouse, plasma; setting = oral, 100 mg/kg once daily, day 7; measurement = AUC(0-t); result = 12100 ± 597 ng·h/mL
Structure (SMILES) = CC(CCC(=O)NCC(=O)O)C1CCC2C3CCC4CC(OC5OC(C(=O)O)C(O)C(O)C5O)CCC4(C)C3CC(O)C12C (centres unmarked); system = men, T/C genotype, plasma; setting = dose not given, geometric mean; measurement = plasma concentration; result = 138 ng/mL
Structure (SMILES) = COc1cnc2cccc(N3CCc4c(cc(Cn5ccnc5)cc4-c4cn(C)nc4C(F)(F)F)C3=O)c2c1; system = BALB/c nude mice, MV4-11 xenograft; setting = intraperitoneal, 75 mg/kg, day 31; measurement = body weight; result = 22.2 g and 26.2 g and 22 g and 23.7 g and 23.6 g and 23.2 g and 22.4 g and 22.5 g
Structure (SMILES) = CSCC[C@H](NC(=O)CNC(=O)[C@H](CCCCN)NC(=O)[C@H](CC(C)C)NC(=O)[C@@H]1CCCN1C(=O)[C@H](CO)NC(=O)[C@H](Cc1c[nH]cn1)NC(=O)[C@H](Cc1c[nH]c2ccccc12)NC(=O)[C@H](CCCNC(=N)N)NC(=O)[C@H](CC(C)C)NC(=O)[C@H](CCCNC(=N)N)NC(=O)[C@H](Cc1c[nH]c2ccccc12)NC(=O)[C@H](CS)NC(=O)CCCCCNC(=O)CN1CCN(CC(=O)O)CCN(CC(=O)O)CCN(CC(=O)O)CC1)C(=O)O [copper-64 labelled]; system = C57BL/6J mice, B16-F10 tumour, blood; setting = intravenous, 1.85 MBq, 30 h; measurement = tissue uptake; result = 0.96 %ID/g
Structure (SMILES) = CSCC[C@H](N)C(=O)N[C@@H](C)C(=O)N[C@@H](CCCNC(=N)N)C(=O)N[C@@H](CCCNC(=N)N)C(=O)N[C@@H](CC(=O)O)C(=O)N[C@@H](CCCCN)C(=O)N[C@H](C(=O)N[C@@H](CC(=O)O)C(=O)N[C@@H](Cc1ccccc1)C(=O)N[C@@H](C)C(=O)N[C@@H](CCCNC(=N)N)C(=O)N[C@@H](CCCNC(=N)N)C(=O)N[C@@H](CCCNC(=N)N)C(=O)N[C@@H](CCCNC(=N)N)C(=O)NCCCCCC(=O)NCCCCC(NC(=O)CCCCCNC(=O)[C@H](CCCNC(=N)N)NC(=O)[C@H](CCCNC(=N)N)NC(=O)[C@H](CCCNC(=N)N)NC(=O)[C@H](CCCNC(=N)N)NC(=O)[C@H](C)NC(=O)[C@H](Cc1ccccc1)NC(=O)[C@H](CC(=O)O)NC(=O)[C@@H](NC(=O)[C@H](CCCCN)NC(=O)[C@H](CC(=O)O)NC(=O)[C@H](CCCNC(=N)N)NC(=O)[C@H](CCCNC(=N)N)NC(=O)[C@H](C)NC(=O)[C@@H](N)CCSC)[C@@H](C)O)C(=O)NCCCCC(NC(=O)C(CCCCNC(=O)CCCCCNC(=O)[C@H](CCCNC(=N)N)NC(=O)[C@H](CCCNC(=N)N)NC(=O)[C@H](CCCNC(=N)N)NC(=O)[C@H](CCCNC(=N)N)NC(=O)[C@H](C)NC(=O)[C@H](Cc1ccccc1)NC(=O)[C@H](CC(=O)O)NC(=O)[C@@H](NC(=O)[C@H](CCCCN)NC(=O)[C@H](CC(=O)O)NC(=O)[C@H](CCCNC(=N)N)NC(=O)[C@H](CCCNC(=N)N)NC(=O)[C@H](C)NC(=O)[C@@H](N)CCSC)[C@@H](C)O)NC(=O)CCCCCNC(=O)[C@H](CCCNC(=N)N)NC(=O)[C@H](CCCNC(=N)N)NC(=O)[C@H](CCCNC(=N)N)NC(=O)[C@H](CCCNC(=N)N)NC(=O)[C@H](C)NC(=O)[C@H](Cc1ccccc1)NC(=O)[C@H](CC(=O)O)NC(=O)[C@@H](NC(=O)[C@H](CCCCN)NC(=O)[C@H](CC(=O)O)NC(=O)[C@H](CCCNC(=N)N)NC(=O)[C@H](CCCNC(=N)N)NC(=O)[C@H](C)NC(=O)[C@@H](N)CCSC)[C@@H](C)O)C(N)=O)[C@@H](C)O (some centres unmarked); system = C57BL/6 mouse female, colon; setting = dose not given, 3 h; how to read = reference: total; measurement = mean tissue distribution; result = 1.79%
Structure (SMILES) = C=CC(=O)Nc1cccc(Cn2ncc3cnc(Nc4cnn(CCOC)c4)nc32)c1; system = Sprague-Dawley rat female, serum; setting = oral, 180 mg/kg, day 28, 28-day subacute toxicity; measurement = serum total protein; result = 47.1 ± 9.95 g/L
Structure (SMILES) = O=C1NC2(CC2)COc2ncc(F)cc2[C@H]2COCCN2c2ccn3ncc1c3n2; system = Sprague-Dawley rat, female, serum; setting = oral, 20 mg/kg/day, end of treatment, 4-week subacute toxicity; measurement = serum triglycerides; result = 0.45 ± 0.32 mmol/L
Structure (SMILES) = Cc1nnc(-c2ccc(CC(=O)NCCCC[C@H](NC(=O)c3ccc(OCc4ccc(B(O)O)cc4)c(-c4nc5ccccc5c(=O)[nH]4)c3)C(=O)NCC(=O)NCC(=O)NCC(=O)N[C@@H](Cc3ccccc3)C(=O)N[C@@H](Cc3ccccc3)C(=O)O)cc2)nn1; assay = UPLC-MS/MS; system = human serum; setting = 100 µM, 1 h, 37 °C; measurement = remaining compound; result = 86.7%
Structure (SMILES) = CCN1CC2(COC)C(O)CC(OC)C34C5CC6(O)C(OC)C(O)C(O)(C5C6OC(=O)c5ccccc5)C(C(OC)C23)C14 (centres unmarked); system = Sprague-Dawley rat, plasma; setting = oral, dose not given, in PCW extract; measurement = Tmax; result = 45 min
Structure (SMILES) = CC(=O)NCCCC[C@@H]1NC(=O)[C@H](Cc2c[nH]c3c(C)cccc23)NC(=O)[C@H]([C@@H](C)O)NC(=O)[C@H](CC(N)=O)NC(=O)[C@@H](NC(C)=O)C(C)(C)SSC(C)(C)[C@@H](C(=O)N[C@@H](Cc2ccc(OCCN)cc2)C(=O)N[C@@H](Cc2ccc3ccccc3c2)C(=O)NC2(C(=O)N[C@@H](CCC(=O)O)C(=O)N[C@@H](CC(N)=O)C(=O)N[C@@H](Cc3cccnc3)C(=O)N(C)CC(N)=O)CCOCC2)NC1=O; assay = equilibrium dialysis; system = human, plasma; setting = 1 µM; measurement = plasma protein binding; result = 49.7 ± 5.4%
